{"data": "Published values collected from several papers", "HTR1A": "5-hydroxytryptamine receptor 1A (HTR1A, Homo sapiens, UniProt P08908)", "nadD": "Probable nicotinate-nucleotide adenylyltransferase (nadD, Mycobacterium tuberculosis, UniProt P9WJJ5)", "note": "“And” joins repeats or separate records; there may be more than shown. ± marks the error that the study gave.", "UniProt P28335, sequence (whole entry, looked up)": "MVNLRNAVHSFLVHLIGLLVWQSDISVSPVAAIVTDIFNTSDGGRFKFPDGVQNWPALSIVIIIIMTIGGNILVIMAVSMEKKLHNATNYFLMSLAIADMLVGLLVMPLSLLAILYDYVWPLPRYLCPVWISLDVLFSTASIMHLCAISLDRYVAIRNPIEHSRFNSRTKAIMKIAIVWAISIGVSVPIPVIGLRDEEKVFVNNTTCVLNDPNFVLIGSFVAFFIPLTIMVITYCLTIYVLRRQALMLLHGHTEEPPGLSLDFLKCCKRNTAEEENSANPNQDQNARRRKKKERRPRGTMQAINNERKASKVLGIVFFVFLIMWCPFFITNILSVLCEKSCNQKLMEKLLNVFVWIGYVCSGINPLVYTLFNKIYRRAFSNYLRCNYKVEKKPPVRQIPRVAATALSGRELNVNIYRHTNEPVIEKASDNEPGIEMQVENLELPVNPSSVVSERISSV", "UniProt P08908, sequence (whole entry, looked up)": "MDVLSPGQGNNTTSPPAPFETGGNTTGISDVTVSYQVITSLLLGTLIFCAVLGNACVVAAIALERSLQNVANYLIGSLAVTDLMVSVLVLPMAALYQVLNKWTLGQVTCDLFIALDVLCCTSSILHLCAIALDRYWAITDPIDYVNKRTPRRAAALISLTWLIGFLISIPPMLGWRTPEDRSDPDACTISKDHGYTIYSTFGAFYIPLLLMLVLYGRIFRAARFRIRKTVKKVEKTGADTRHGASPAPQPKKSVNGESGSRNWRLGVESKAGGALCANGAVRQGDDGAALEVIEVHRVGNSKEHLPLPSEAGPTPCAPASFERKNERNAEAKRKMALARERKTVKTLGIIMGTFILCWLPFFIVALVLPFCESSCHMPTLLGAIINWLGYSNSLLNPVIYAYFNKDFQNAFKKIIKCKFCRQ", "UniProt P10635, sequence (whole entry, looked up)": "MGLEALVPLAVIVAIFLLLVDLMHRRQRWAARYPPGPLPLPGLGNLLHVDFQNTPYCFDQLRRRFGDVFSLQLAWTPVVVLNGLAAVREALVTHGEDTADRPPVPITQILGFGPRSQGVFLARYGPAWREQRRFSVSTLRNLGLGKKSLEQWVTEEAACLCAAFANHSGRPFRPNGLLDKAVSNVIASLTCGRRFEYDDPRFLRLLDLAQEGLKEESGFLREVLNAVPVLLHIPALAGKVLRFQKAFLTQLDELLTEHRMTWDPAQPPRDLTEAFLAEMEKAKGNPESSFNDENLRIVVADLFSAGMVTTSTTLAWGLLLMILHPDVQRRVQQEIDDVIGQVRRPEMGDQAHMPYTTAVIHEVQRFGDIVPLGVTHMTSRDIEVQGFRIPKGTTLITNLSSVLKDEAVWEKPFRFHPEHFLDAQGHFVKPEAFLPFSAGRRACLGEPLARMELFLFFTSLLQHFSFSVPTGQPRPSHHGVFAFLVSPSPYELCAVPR", "UniProt P33533, sequence (whole entry, looked up)": "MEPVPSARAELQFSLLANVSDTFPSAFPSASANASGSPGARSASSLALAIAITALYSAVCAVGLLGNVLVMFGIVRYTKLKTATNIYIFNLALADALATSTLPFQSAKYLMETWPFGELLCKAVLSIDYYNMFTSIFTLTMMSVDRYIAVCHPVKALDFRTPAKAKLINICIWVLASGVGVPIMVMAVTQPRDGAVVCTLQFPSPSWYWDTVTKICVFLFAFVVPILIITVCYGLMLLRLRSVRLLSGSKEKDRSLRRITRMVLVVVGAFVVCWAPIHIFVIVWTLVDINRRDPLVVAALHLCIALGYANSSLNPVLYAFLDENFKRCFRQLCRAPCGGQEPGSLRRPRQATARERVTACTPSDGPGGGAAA", "UniProt P17787, sequence (whole entry, unmodified, looked up)": "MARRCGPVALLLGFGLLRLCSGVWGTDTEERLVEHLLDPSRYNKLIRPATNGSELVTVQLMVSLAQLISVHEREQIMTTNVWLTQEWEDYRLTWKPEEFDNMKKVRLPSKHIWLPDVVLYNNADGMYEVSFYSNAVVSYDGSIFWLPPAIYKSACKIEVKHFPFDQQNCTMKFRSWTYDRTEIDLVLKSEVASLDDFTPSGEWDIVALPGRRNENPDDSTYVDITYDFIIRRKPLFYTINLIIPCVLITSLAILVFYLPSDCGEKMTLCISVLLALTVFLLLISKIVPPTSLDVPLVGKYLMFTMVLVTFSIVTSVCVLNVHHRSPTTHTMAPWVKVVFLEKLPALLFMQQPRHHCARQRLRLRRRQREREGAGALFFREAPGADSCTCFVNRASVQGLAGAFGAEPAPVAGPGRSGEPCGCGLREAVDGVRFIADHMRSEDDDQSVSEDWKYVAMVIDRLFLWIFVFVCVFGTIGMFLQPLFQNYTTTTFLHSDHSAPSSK", "UniProt O95180, sequence (whole entry, looked up)": "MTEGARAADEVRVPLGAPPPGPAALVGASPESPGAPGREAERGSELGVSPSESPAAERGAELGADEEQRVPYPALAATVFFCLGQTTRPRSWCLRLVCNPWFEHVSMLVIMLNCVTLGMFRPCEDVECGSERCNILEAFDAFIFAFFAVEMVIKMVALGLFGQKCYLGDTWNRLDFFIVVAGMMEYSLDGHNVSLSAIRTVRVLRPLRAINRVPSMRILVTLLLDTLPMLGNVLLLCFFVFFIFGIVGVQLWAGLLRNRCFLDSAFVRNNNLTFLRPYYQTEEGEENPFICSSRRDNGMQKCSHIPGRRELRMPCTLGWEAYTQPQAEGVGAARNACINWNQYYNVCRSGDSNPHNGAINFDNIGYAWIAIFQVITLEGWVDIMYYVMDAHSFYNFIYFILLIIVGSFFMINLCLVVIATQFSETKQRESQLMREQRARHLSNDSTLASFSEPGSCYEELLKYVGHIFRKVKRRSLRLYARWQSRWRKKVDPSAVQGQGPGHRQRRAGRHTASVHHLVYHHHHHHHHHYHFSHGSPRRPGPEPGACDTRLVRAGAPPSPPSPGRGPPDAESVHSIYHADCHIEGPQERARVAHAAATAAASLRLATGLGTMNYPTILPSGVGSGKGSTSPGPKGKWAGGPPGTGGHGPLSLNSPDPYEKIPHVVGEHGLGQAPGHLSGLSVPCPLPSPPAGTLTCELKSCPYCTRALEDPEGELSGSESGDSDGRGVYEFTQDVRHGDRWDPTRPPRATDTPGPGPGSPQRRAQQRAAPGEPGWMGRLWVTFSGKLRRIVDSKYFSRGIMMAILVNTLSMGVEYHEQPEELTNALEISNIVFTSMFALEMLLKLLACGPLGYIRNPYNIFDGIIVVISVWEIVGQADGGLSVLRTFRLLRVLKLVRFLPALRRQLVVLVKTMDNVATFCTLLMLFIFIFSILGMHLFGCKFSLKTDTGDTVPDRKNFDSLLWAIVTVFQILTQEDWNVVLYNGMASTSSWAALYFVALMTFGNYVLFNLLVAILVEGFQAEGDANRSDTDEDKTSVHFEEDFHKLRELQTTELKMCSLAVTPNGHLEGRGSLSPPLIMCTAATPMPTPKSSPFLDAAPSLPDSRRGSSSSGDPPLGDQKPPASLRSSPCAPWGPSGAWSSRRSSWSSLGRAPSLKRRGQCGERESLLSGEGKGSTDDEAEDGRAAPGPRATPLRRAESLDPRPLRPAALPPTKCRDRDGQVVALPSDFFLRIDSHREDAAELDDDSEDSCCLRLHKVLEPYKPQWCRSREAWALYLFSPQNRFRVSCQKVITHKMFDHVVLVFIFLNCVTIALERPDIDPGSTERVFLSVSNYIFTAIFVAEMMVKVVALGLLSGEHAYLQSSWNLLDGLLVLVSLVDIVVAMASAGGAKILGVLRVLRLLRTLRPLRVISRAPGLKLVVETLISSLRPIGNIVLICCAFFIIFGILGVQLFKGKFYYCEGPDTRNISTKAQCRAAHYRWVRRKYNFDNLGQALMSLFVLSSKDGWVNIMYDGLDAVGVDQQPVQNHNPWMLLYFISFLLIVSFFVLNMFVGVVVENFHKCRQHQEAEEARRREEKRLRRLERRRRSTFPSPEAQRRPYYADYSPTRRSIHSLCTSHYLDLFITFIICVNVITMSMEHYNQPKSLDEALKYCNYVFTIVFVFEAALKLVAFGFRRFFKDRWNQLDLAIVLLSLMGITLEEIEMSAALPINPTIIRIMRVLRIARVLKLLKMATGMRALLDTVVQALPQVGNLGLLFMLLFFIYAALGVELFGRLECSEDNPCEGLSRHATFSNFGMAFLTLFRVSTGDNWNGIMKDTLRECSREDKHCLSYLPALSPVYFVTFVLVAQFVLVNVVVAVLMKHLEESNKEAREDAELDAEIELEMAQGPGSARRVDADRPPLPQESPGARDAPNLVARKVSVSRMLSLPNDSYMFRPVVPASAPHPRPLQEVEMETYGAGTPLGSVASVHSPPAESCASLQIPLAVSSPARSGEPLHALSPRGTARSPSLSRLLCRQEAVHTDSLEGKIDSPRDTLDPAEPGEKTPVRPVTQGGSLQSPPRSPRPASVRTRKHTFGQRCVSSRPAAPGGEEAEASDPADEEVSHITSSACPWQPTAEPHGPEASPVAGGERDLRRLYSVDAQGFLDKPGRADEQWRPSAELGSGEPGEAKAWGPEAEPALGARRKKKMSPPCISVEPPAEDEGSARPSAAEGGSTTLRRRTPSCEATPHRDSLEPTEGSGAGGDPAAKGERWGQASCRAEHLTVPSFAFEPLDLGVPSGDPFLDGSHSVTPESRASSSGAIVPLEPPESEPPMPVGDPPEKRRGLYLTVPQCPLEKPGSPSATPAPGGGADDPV", "UniProt Q9Y5N1, sequence (whole entry, looked up)": "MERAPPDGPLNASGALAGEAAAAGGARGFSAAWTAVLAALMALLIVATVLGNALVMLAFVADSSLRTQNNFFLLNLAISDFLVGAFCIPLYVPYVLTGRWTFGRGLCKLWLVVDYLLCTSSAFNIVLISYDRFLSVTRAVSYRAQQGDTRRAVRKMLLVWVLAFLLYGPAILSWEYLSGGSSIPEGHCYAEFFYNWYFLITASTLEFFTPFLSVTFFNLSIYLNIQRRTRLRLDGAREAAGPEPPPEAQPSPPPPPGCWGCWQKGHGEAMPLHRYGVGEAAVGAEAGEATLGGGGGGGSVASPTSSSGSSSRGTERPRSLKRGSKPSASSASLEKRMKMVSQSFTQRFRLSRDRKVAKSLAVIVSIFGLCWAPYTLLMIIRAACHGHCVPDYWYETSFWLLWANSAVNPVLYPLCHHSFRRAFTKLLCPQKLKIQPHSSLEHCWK"}
{"Substance": "COc1ccc2[nH]cc(CCNC(C)C)c2c1", "tested on": "HTR1A", "assay": "calcium signal, agonist", "measurement": "EC50", "result": "> 10 µM"}
{"Substance": "Ic1cncc(OC[C@@H]2CCN2)c1", "tested on": "Neuronal acetylcholine receptor; alpha4/beta2 (Homo sapiens, UniProt P17787+P43681, F144Q)", "assay": "binding, inhibitor", "conditions": "5 h, room temperature, together with: 5 nM [3H]epibatidine", "measurement": "IC50", "result": "0.04 ± 0.0019 µM"}
{"Substance": "NC(=O)c1cccnc1", "tested on": "Halyomorpha halys Nan-Iav W323A", "assay": "[3H]-AP competition binding", "measurement": "Ki", "result": "> 10000 µM"}
{"Substance": "O=c1[nH]c2ccccc2n1C1CCN(CCCC(c2ccc(F)cc2)c2ccc(F)cc2)CC1", "tested on": "CACNA1H (Homo sapiens, UniProt O95180)", "assay": "calcium current, blocker, automated patch clamp", "conditions": "tonic block, holding -90 mV", "measurement": "IC50", "result": "7.2 ± 1.2 µM"}
{"Substance": "CCn1cc(C(=O)NCc2cccc(F)c2)c(=O)c2cc(F)c(N3CCN(C(=O)c4ccco4)CC3)cc21", "tested on": "nadD", "assay": "enzyme activity, inhibitor, released pyrophosphate", "measurement": "IC50", "result": "13.3 ± 2.9 µM"}
{"Substance": "CN1CC[C@]2(c3cccc(O)c3)Cc3nc4ccccc4cc3C[C@H]2C1", "tested on": "Oprd1 (Rattus norvegicus, UniProt P33533)", "assay": "GTPγS binding, agonist, radiometric", "conditions": "cell membranes", "measurement": "EC50", "result": "> 100 µM"}
{"Substance": "C[C@]12CC[C@H]3[C@@H](CCC4=CC(=O)CC[C@@]43C)[C@@H]1CC[C@@H]2O", "tested on": "mouse anti-cortisol Fab 17", "assay": "native MS titration", "system": "200 mM ammonium acetate", "conditions": "1.5% DMSO, 0.5% methanol, together with: Fab 100 nM", "measurement": "Kd", "result": "26 ± 8 µM"}
{"Substance": "C[C@H](N)Cc1ccccc1", "tested on": "HRH3 (Homo sapiens, UniProt Q9Y5N1)", "assay": "GTPγS binding, antagonist", "conditions": "cell membranes", "measurement": "Kb", "result": "> 10 µM"}
{"Substance": "CCn1cc(C(=O)NCc2ccccc2)c(=O)c2cc(F)c(N3CCN(C(=O)c4ccco4)CC3)cc21", "tested on": "nadD", "assay": "enzyme activity, inhibitor, released pyrophosphate", "measurement": "IC50", "result": "3.7 ± 0.6 µM"}
{"Substance": "COc1cc(CCNCc2ccccc2O)c(OC)cc1I", "tested on": "HTR2C (Homo sapiens, UniProt P28335)", "assay": "ligand displacement, radioligand", "measurement": "Ki", "result": "0.00103 µM and ~0.001 µM"}
{"Substance": "C[C@H]1CNCCc2ccc(Cl)cc21", "system": "male Sprague-Dawley rat, plasma", "conditions": "subcutaneous, 0.5 mg/kg, single dose", "measurement": "half-life", "result": "2.39 h"}
{"Substance": "CNC(C)Cc1ccc2c(c1)OCO2 (stereo not drawn)", "tested on": "Cytochrome P450 2D6 (CYP2D6, Homo sapiens, UniProt P10635)", "assay": "binding", "system": "proteoliposomes", "measurement": "Kd", "result": "17 to 56 µM"}
{"Substance": "CCn1cc(C(=O)Nc2ncc(C)s2)c(=O)c2cc(F)c(N3CCN(C(=O)c4ccco4)CC3)cc21", "tested on": "nadD", "assay": "enzyme activity, inhibitor, released pyrophosphate", "measurement": "IC50", "result": "> 100 µM"}
{"Substance": "CCN(CC)CCc1c[nH]c2ccc(OC)cc12", "tested on": "HTR2A (Homo sapiens, UniProt P28223)", "assay": "calcium signal, agonist", "measurement": "EC50", "result": "0.00811 µM"}
{"Substance": "CC1CCC(C(C)C)C(OC(=O)Cn2c(COc3ccccc3)[n+](C)c3ccccc32)C1 (stereo not drawn)", "tested on": "nadD", "assay": "released PPi detection", "measurement": "IC50", "result": "17.9 ± 2.2 µM"}
{"Substance": "CNC(C)Cc1ccc2c(c1)OCO2 (racemic)", "assay": "visual analog scale, item: Restless", "system": "human", "conditions": "oral, 0.75 mg/kg, mean over session, unit not given", "how to read": "reference: pre-dose baseline", "measurement": "mood rating", "result": 18.1}
{"Substance": "CCn1cc(C(=O)NCc2ccccn2)c(=O)c2cc(F)c(N3CCN(C(=O)c4ccco4)CC3)cc21", "tested on": "nadD", "assay": "enzyme activity, inhibitor, released pyrophosphate", "measurement": "IC50", "result": "> 100 µM"}
{"Substance": "[C-]#[O+]", "tested on": "Vibrio cholerae H-NOX Fe(II)", "assay": "gaseous ligand binding", "conditions": "24 °C", "measurement": "Kd", "result": "< 50 µM"}
{"Substance": "CN[C@@](C)(C[18F])C(=O)O", "tested on": "SK-OV-3 tumour model", "system": "host not given, heart", "conditions": "15 min, tumour-bearing", "measurement": "tracer uptake", "result": "2.3 %ID/g"}
{"Substance": "CCn1cc(C(=O)NCc2ccncc2)c(=O)c2cc(F)c(N3CCN(C(=O)c4ccco4)CC3)cc21", "tested on": "nadD", "assay": "enzyme activity, inhibitor, released pyrophosphate", "measurement": "IC50", "result": "76.1 ± 16.4 µM"}
{"Substance": "[Tb+3]", "tested on": "pglB (Campylobacter lari, UniProt B9KDD4)", "assay": "binding, luminescence", "measurement": "Kd", "result": "1.8 µM"}
{"Substance": "GsMTx4", "tested on": "stretch-activated cation channel, rat", "assay": "ion current, inhibitor, outside-out patch clamp", "system": "rat astrocytes", "conditions": "holding -50 mV, pressure-activated", "measurement": "Kd", "result": "0.631 ± 0.24 µM"}
{"Substance": "[123I]c1cncc(OC[C@@H]2CCN2)c1", "assay": "SPECT", "system": "human, pons", "conditions": "intravenous bolus, 8.6 mCi", "how to read": "reference: plasma", "measurement": "tissue/plasma ratio", "result": 25.2}
{"Substance": "c1ccc(CCN2CCCCC2)cc1", "tested on": "HTR1A", "assay": "binding", "system": "HA7", "conditions": "together with: [3H]8-OH-DPAT 0.50 nM", "measurement": "Ki", "result": "4.99 ± 0.33 µM"}
{"note": "For quick reference, copied from above:"}
{"Substance": "CCn1cc(C(=O)NCc2cccc(F)c2)c(=O)c2cc(F)c(N3CCN(C(=O)c4ccco4)CC3)cc21", "tested on": "nadD", "assay": "enzyme activity, inhibitor, released pyrophosphate", "measurement": "IC50", "result": "13.3 ± 2.9 µM"}
{"Substance": "Ic1cncc(OC[C@@H]2CCN2)c1", "tested on": "Neuronal acetylcholine receptor; alpha4/beta2 (Homo sapiens, UniProt P17787+P43681, F144Q)", "assay": "binding, inhibitor", "conditions": "5 h, room temperature, together with: 5 nM [3H]epibatidine", "measurement": "IC50", "result": "0.04 ± 0.0019 µM"}
